Assay results gathered from unrelated publications.
Numbered parts are unrelated; each lists some results of a single study. Positions count from the first letter of the parent shown.

Sample 1 — method: DHFR PCA, deep sequencing; sample: yeast; together with: (+)-ABA 17 µM; relative to: wild-type fitted maximum; direction: higher = stronger binding
Target: ABI1, truncated, D143A, DHFR fusion (Arabidopsis thaliana)
Setting: methotrexate growth selection, single substitutions
Parent: PYL1, truncated, DHFR fusion (Arabidopsis thaliana); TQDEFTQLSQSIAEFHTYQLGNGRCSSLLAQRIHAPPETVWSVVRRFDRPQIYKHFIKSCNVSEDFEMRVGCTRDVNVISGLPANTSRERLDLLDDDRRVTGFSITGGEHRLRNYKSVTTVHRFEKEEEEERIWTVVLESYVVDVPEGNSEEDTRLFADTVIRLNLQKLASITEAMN; partner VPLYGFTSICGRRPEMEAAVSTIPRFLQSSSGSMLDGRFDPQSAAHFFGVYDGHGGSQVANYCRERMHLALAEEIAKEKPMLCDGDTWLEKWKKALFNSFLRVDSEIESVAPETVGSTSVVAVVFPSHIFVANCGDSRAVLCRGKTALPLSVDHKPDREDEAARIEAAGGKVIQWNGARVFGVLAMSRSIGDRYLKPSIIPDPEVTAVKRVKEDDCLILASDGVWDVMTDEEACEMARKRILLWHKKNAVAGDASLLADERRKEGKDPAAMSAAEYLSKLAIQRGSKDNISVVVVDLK
Change | relative binding score [%]
A170R | 89.3
E125Y | 87.6
F157E | -7.32
I52W | 63.4
P50W | -9.96
M176A | 85.4
V143T | 66.7
V70L | 56.1
T160E | 2.23
N165H | -5.58
E131G | 96.7
L169R | 3.14
A158W | 4.67
D153I | -12.1
V118K | 83.4
S87R | 21.7
P83E | 19.7
F5C | 79.4
T73A | 54.8
E174F | 20.2
L91P | -20.4
H122T | 16.6
N77A | 86.7
S80E | 4.57
K54V | -7.3

Sample 2 — method: protein binding microarray; molecule type: double-stranded DNA, one strand shown; sample: in vitro; concentration: not given; relative to: not given; direction: higher = stronger binding
Target: Histone acetyltransferase KAT6A, winged helix 2, GST fusion (KAT6A, Homo sapiens, UniProt Q92794, residues 85-181)
Setting: 8-mer, flanks averaged, mean of 2 arrays, mostly near background
Construct (chain): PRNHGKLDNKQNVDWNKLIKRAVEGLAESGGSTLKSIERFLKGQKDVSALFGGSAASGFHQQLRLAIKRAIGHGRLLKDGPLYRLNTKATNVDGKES
Sequence | E-score
GCTTGTAC | -0.0285
AATATTTA | 0.0543
CCCCCATA | -0.201
GTTTGTCA | 0.0226
CAGTTCAC | 0.0192
CGCTAAAG | 0.0179
GACTCACC | -0.171
GCATAGAC | -0.00652
ACGGACCC | 0.0755
CTCAACAC | 0.107
ATGAGACC | -0.102
CGAGGAAC | 0.0952
CGTCACGA | -0.0266
AAGCGGGT | 0.0864
CTTTCGAA | -0.0349
ATCATAGC | 0.0828
GATCGCCA | -0.0398
ATCTAACG | -0.0562
CTGCAAAA | 0.00097
ATGAAATC | 0.103
ACTCCCAA | 0.0198
GGCAGGAC | 0.00553
ACACACTG | -0.0796
ATCTTTAC | -0.0234
GGATCTAA | -0.0598

Sample 3 — target: CCND2, cyclin fold, Cln2 fusion (human); method: yeast growth competition, sequencing; sample: yeast; setting: strong parent motif; relative to: not given; direction: higher = stronger binding
Parent: INSM1 docking peptide (human); PKAIRKLHFEDEV
Change | normalised enrichment score
F9G | 0.445
L7E | 0.176
D11A | 1.8
R5Q | 0.701
L7V | 0.45
H8S | 2.88
H8F | 1.67
L7R | 0.263
A3P | 0.768
K6R | 2.07
F9L | 0.481
H8G | 1.04
E12Y | 1.68
A3H | 0.535
R5E | 0.313

Sample 4 — target: MAFK, bZIP domain (human); method: DHFR protein complementation; sample: yeast; relative to: wild-type JUN-FOS pair; direction: higher = stronger binding
Setting: single substitutions, most at no-binding floor
Parent: JUN, bZIP domain (human); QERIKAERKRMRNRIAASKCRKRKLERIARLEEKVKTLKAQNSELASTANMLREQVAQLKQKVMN; partner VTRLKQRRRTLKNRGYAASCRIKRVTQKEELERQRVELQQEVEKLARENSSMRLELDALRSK
Change | binding fitness
S43Q | -1.52 natural log
L31Q | -1.46 natural log
L52F | -1.32 natural log
A57W | -1.52 natural log
Q41L | -1.53 natural log
V35N | -1.55 natural log
M51I | -1.51 natural log
A40H | -1.36 natural log
R30S | -1.44 natural log
L52A | -1.55 natural log
E32Q | -1.45 natural log
N42C | -1.31 natural log

Sample 5 — method: protein-binding microarray; molecule type: double-stranded DNA, one strand shown; sample: in vitro; concentration: 250 nM; setting: 60-bp whole probe; together with: salmon DNA 0.4 mg/ml; relative to: random background probes; direction: higher = stronger binding; shared flanks, not repeated: GCCTAGCAC … GTCTTGATTCGCTTGACGCTGCTG
Target: Interferon regulatory factor 7, full length, phosphomimetic (IRF7, Homo sapiens, UniProt Q92985, residues 1-503, S101K/S471D/S472D/S475D/S476D/S477D/S483D/S484D/S487D)
Sequence of UniProt Q92985 (whole entry, unmodified, looked up): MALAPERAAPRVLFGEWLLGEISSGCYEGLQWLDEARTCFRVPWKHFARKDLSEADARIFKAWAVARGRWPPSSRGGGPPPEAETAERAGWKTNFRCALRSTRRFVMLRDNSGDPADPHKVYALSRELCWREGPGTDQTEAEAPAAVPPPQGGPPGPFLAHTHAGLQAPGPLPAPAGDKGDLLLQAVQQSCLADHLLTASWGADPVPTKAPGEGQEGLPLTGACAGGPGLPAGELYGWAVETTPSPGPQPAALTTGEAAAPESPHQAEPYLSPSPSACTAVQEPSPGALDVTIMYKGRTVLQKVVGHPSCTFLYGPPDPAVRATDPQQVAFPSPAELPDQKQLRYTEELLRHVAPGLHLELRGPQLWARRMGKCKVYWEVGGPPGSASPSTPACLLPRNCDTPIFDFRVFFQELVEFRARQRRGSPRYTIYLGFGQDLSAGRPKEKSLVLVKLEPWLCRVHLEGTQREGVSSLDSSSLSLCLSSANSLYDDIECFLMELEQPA
Sequence | log fluorescence
TTAGGACTGGTGTATCGGTTAGTGCTA | -0.325 z-score
TTAGATTTCAGTATCTATTAGTGCTAG | 0.471 z-score
TTACGTCTCGGTCTCGGTTAGTGCTAG | 2 z-score
TTAGATTTCAGTATCGAGTAGTGCTAG | 0.6 z-score
ATCATTTTAGTTTTCATTATGTGCTAG | 1.72 z-score
TCAATTTGGCATATCTAACTGTGCTAG | 0.263 z-score
GACGGTCTGGGTTTCGGGACGTGCTAG | 1.78 z-score
TTAGGTTTCGGACCGGGTTAGTGCTAG | 2.62 z-score
TCATCTTCCCTTTTAAGACTGTGCTAG | 1.8 z-score
TTAGGTTCCGGTTCCGGTTAGTGCTAG | 6.06 z-score
TCACTTCCATTTTCTGAAACTGTGCTA | 1.98 z-score
GACGGTTTCGGTATCGGTACGTGCTAG | 10.8 z-score
TTGTAGATGCCTTTCTCTTGGTGCTAG | -0.25 z-score
TCACATCTCACTCTAATACTGTGCTAG | 0.43 z-score
TTAGAACTGAGACTGGATTAGTGCTAG | -0.0495 z-score
TCCCCTCTCTTTCCAACTCTGTGCTAG | 0.621 z-score
GACGAACCGAGACTGGAGACGTGCTAG | 1.39 z-score
TCATGTTTTTTTCTACTACTGTGCTAG | 1.47 z-score
GACGAACTGAGTCTCGTGACGTGCTAG | 0.0341 z-score
TTCGGACTGCTTATCCTTTAGTGCTAG | -0.318 z-score

Sample 6 — method: RNA Bind-n-Seq; molecule type: RNA; sample: in vitro; concentration: 365 nM; relative to: no-protein control; direction: higher = stronger binding
Target: RNA binding protein fox-1 homolog 2, RRM domain, GST-SBP tag (RBFOX2, Homo sapiens, UniProt O43251-10, residues 100-194)
Setting: natural RNA segment, single round, ends assumed
Shared flanks, not repeated: GGGAGUUCUACAGUCCGACGAUC … UGGAAUUCUCGGGUGCCAA
Residues (chain): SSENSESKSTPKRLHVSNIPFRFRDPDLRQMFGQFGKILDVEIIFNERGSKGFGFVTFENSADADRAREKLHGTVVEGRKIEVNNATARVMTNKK
Sequence | RBNS enrichment (R)
CAUCGCCCUGGUGAACGGGGUCAGCGGCGAGCUCAUCGAGGCCCGGGCCUUUGACAUGUGGGCCGGAGUGAGUUGCAGCGCAGCGUCUUGCAUUUUGACUGCAGCAAAAU | 1.43
UUUGUAACCCCUUCAGCCUAGCCUCUCUGCCCAUUUAUUUCCAACCCCAACAGACACUGACAGGGUCCAUGGAAUUCUUCGGGAAAUCCUCCAAGGACUCUUGUCAGCUG | 0.518
AUUAACUAUUGGUAUACUACUGGUUUUAUAUUUUUUUUUCUUUGAGACAACAGUACAUAUAAUAGAGGUACAAUUCGUUGGAUUUUUGUUUAUGUAUUUAUUUCAUUCCA | 0.656
UUCCUUCAUUGUUCUCUUCAGGGGCUUUCUUCCACUUUCCUCUUAUGAAACGAAUGUGUUUUUGACUGUUAACUGGGUUCGCUUUCCAGAUCUGUCUUUCCCAAAUGAAA | 0.618
AACUACUUAGCACUUCAGGGCAGAUUUUAGUUUUAUUUUCUAAAGUACUGAGCAGUGAUAUUCUUUGUUAAUUUGGACCAUUUUCCUGCAUUGGGUGAUCAUUCACCAGU | 0.705
GAAGCAUUCCCUUGCAACCCGAGCACAUCAGCGAACCCCACGAAAGUGGAAUUUUCUAACAAAAUAAACUUGCUCAUUUGGUCCGUUUUCUGUAACUUUUGCUAAACACU | 0.254
UCUCUUUUACACUCCCCUGUCCCCACCCCAGUGCACUCUUCUGGCCCAGGCAGCAAGCAAGCUGUGAACAGCUGGCCUGAGCUGUCGCUGUGGCUUGUGGCUCAUGCGCC | 0.946
CCCAUUUGCACUCUAUUUCAAAGAAUUGUUAUUGUUCCCUUUCGUUAAAAUCAGUGUUGGGAAUUAAAUUAUAAUUUGAGGGGAAAAUAUCCAAUGGGAAUGAAUGUAGA | 0.828
UAUCUUAAGAGUGCUAAAUUUUUAACUGCCUUUUUGUCGAGUCAAACUGUGGGAUUCUGAUUUGUAUUAAAAUUGUAAGCUCCUCACUGGUAUACUAUCAUCCUGGAGGG | 0.74
AACUUGCUGUUUCCAAAAAGAAGGUGCAAUAUCAUAUACAUCAUUAGCAAUAUUAGCAUUUCAAUCAGCGAUCUGAGUGUUAGUUGUUUUUCCUUUACAUUUCUAGUAGU | 0.466
GCUAUCGCAGACCCACCUGACUGUGGAAUAUAAAAUUGCCAAAUAUCCUUUCUCAUGGAAGCGCGUACCCGUUCGUGGAGGAAACGGAACGGCAGCCCAGCCGUGGGACG | 0.312
AGAUUCAAUCGUAACUGUGUCAACAGUAUUGUGAAGUGAUCAUUUCUUGUAAAACUUGUAAAUAAACUAUCAUCUUUGUAGAUAUCUUAAAGGUGUAAAGUUUGCAAAUU | 0.295

Some of these lines once more (sample 5):
Sequence | log fluorescence
TCAATTTGGCATATCTAACTGTGCTAG | 0.263 z-score
GACGGTTTCGGTATCGGTACGTGCTAG | 10.8 z-score
GACGGTCTGGGTTTCGGGACGTGCTAG | 1.78 z-score
TTGTAGATGCCTTTCTCTTGGTGCTAG | -0.25 z-score
TTACGTCTCGGTCTCGGTTAGTGCTAG | 2 z-score
TTAGAACTGAGACTGGATTAGTGCTAG | -0.0495 z-score
TCATCTTCCCTTTTAAGACTGTGCTAG | 1.8 z-score
TTCGGACTGCTTATCCTTTAGTGCTAG | -0.318 z-score
